Published values gathered from unrelated publications.
Numbered parts are unrelated; each lists some results of a single study.

Sample 1
Target: Histone acetyltransferase KAT6A, both winged helices, GST fusion (KAT6A, Homo sapiens, UniProt Q92794, residues 1-181)
Method: protein binding microarray
Molecule type: double-stranded DNA, one strand shown
Medium: in vitro
Concentration: not given
Setting: 8-mer, flanks averaged, mean of 2 arrays, mostly near background
Reference: not given
Direction: higher = stronger binding
Target sequence (chain): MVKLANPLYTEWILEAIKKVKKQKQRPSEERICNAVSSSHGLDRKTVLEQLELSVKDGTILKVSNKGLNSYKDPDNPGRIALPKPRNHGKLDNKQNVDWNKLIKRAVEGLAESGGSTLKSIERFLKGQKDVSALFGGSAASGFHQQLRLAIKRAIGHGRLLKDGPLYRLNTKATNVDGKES
With `CCGGCGTA` the E-score was 0.259.
`CTTGGAAA` gave an E-score of -0.0231.
The E-score of `ATGAAGAG` is reported as -0.00222.
`TATGAGAA` has an E-score of -0.0545.
With `ATTTGCAG` the E-score was -0.189.
`ACGAGCAC` has an E-score of -0.134.
`CCGCACGA` gave an E-score of 0.134.
`TAAAATCA` gave an E-score of -0.101.
`TGCGTGAA` gave an E-score of 0.159.
For `ACACGGCG`, the E-score was 0.347.
The E-score of `AATCAAGA` is reported as -0.0402.
`CTTGTGCA` has an E-score of -0.154.
The E-score of `AGCTGACG` is reported as 0.144.
The E-score of `ATGCCAAT` is reported as -0.136.
`CGCGATAC` has an E-score of 0.278.
For `GATGGGAA`, the E-score was -0.132.
With `AGGGTCAC` the E-score was -0.0919.
For `CCATGGGG`, the E-score was -0.132.
With `GTCCAAAA` the E-score was 0.0125.
`CACGCCGC` has an E-score of 0.306.

Sample 2
Target: Interferon regulatory factor 7, full length, phosphomimetic (IRF7, Homo sapiens, UniProt Q92985, residues 1-503, S101K/S471D/S472D/S475D/S476D/S477D/S483D/S484D/S487D)
Method: protein-binding microarray
Molecule type: double-stranded DNA, one strand shown
Medium: in vitro
Concentration: 250 nM
Setting: 60-bp whole probe
Added: salmon DNA 0.4 mg/ml
Reference: random background probes
Direction: higher = stronger binding
Constant ends, left off below: GCCTAGCAC … GTCTTGATTCGCTTGACGCTGCTG
Residues (chain): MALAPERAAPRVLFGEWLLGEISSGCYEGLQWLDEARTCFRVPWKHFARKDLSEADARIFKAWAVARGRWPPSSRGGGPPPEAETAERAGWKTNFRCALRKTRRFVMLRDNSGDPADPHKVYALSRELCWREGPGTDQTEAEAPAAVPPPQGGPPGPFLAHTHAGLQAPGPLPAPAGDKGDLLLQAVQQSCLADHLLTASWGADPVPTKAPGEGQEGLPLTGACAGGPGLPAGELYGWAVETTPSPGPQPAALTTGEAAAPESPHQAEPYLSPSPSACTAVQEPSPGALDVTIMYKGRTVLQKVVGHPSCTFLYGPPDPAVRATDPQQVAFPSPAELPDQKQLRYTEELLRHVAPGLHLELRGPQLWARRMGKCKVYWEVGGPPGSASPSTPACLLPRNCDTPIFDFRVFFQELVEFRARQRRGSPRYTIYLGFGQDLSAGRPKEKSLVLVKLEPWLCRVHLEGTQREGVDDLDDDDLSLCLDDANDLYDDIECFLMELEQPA
`ATCCCATTAAATTTTAATAAGTGCTAG` has a log fluorescence of 1.19 z-score.
The log fluorescence of `TCATACCTGAATATCTTACTGTGCTAG` is reported as 0.359 z-score.
`GTGAGTCCCAAGAATGGTGTGGTGCTA` gave a log fluorescence of 0.286 z-score.
The log fluorescence of `TTAGCACTGGACACTGGGTTAGTGCTA` is reported as -0.761 z-score.
For `ATAGGTTTCGGTATCGGTTAGTGCTAG`, the log fluorescence was 11.1 z-score.
With `TTAGCACTGGGACTGGGTTAGTGCTAG` the log fluorescence was 0.00206 z-score.
The log fluorescence of `TCATGTAACTCCTATCCAACTGTGCTA` is reported as 0.128 z-score.
For `GTCGGTTTCGGGACTGGGGACGTGCTA`, the log fluorescence was 5.16 z-score.
`TTAGGTATCCTTAGCCTTTAGTGCTAG` has a log fluorescence of -0.151 z-score.
For `GACGGTTTCGGGTATCGGGATGTGCTA`, the log fluorescence was 7.78 z-score.
With `GACGATATAGGGTATCGAGACGTGCTA` the log fluorescence was -0.146 z-score.
With `TCAATTTTGCTTCTAGAACTGTGCTAG` the log fluorescence was 0.285 z-score.
`TTAGGTTCCCTTTTCCTATAGTGCTAG` gave a log fluorescence of 4.56 z-score.
`GACGGTTTCGGTTTCAGGACGTGCTAG` has a log fluorescence of 13.9 z-score.
With `CTCTGCTTGTGTCTGGGATTGTGCTAG` the log fluorescence was -0.35 z-score.
`TTAGTACTGAGTTTCGATTAGTGCTAG` gave a log fluorescence of 7.8 z-score.
The log fluorescence of `TCAATTGTGGATCTTGCACTGTGCTAG` is reported as 0.0789 z-score.
For `GACGGTATCGGAATCGGGACGTGCTAG`, the log fluorescence was 1.08 z-score.

Sample 3
Target: Phosphate system positive regulatory protein PHO4, full length, GST-tagged (PHO4, Saccharomyces cerevisiae, UniProt P07270, residues 1-312)
Method: competition protein-binding microarray
Molecule type: double-stranded DNA, one strand shown
Medium: in vitro
Concentration: 2 µM
Setting: whole 60-bp probe, lowest competitor level
Added: Cbf1 competitor, 0.05 µM
Direction: higher = stronger binding
Construct (chain): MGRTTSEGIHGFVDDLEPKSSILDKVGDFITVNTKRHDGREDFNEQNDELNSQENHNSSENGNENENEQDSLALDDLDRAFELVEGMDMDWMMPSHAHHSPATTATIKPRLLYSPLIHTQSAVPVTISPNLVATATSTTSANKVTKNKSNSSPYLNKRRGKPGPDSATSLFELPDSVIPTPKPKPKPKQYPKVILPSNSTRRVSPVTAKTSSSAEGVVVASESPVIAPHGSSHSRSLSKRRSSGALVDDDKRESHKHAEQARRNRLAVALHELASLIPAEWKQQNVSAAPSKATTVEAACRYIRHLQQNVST
`CTTCTGTAAATTTGTAAAGTGGGTGGACGCGCCCCGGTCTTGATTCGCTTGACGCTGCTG` has a fluorescence intensity of 4310 a.u.
With `AGAGAGAACTTTGGACACGTTTATAAAAATTGACGGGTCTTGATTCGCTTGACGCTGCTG` the fluorescence intensity was 12300 a.u.
With `GTCTTCGTCGTCGACACCGTGATGGGATTGTAGTTCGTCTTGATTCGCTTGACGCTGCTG` the fluorescence intensity was 5370 a.u.
`AGCCCGCTTCCCGACCACGTGGAGGAACCCTCCCCAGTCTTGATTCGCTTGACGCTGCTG` gave a fluorescence intensity of 18200 a.u.
`CATACCCAACCTTTTCACGTGAGTTAAGATATTTGTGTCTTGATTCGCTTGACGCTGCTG` has a fluorescence intensity of 12500 a.u.
The fluorescence intensity of `CCGCTGCTCGCCGGCCACGTGCGCAGCCTGCAGGAGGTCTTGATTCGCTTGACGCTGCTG` is reported as 14200 a.u.
`TGCGCAACAACTTGTCACCCGACTTTATGTCTAGAAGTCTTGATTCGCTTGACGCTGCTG` gave a fluorescence intensity of 3450 a.u.
`TGCTGTCATTTGAGTCAGGTGTAGAGCAGGTTAGAAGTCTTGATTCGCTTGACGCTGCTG` gave a fluorescence intensity of 3710 a.u.
The fluorescence intensity of `GTCCCCAGCGTACAAACCGTGACGGTTACCGAAAGCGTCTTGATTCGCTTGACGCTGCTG` is reported as 4400 a.u.
With `AACCTACAAAACACCGACGTGTTGAGCGTAAGAACCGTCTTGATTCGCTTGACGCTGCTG` the fluorescence intensity was 6200 a.u.
With `TGCGCAACAACTTGATCCGTGGGTGTATGTCTAGAAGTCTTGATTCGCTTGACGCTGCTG` the fluorescence intensity was 6320 a.u.
With `CATCCTTTCCAACATGATGTGACGAATTAACGACTGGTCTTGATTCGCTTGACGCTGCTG` the fluorescence intensity was 6950 a.u.
For `CGAAAACGGATGCCATGTTCCAGCACCAACTGCTACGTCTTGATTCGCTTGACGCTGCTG`, the fluorescence intensity was 5090 a.u.
With `ATTTCGCCCAGAGCGCACATGATCGGGTAGATAACCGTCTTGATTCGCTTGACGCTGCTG` the fluorescence intensity was 10200 a.u.
`TTAATGACTCCGGTGGTCGTGATGGTAATCTTGATAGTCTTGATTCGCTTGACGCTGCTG` gave a fluorescence intensity of 4750 a.u.
The fluorescence intensity of `CCTTTGGTTTAGATGCACGTGTTGACGACATGAAAGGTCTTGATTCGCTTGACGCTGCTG` is reported as 17600 a.u.
`ACCGAATCTTCGTTCCACGTGGTTACCTGTCATGGTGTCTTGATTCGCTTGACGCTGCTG` gave a fluorescence intensity of 18100 a.u.
For `GTCTTGTCTCATTGCCAGGTGGGTGTCCCCACTTCAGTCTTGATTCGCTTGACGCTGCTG`, the fluorescence intensity was 6080 a.u.
`GCATCTGCAGGGTGCCTCGTGCAAAGTTAGAGGAAGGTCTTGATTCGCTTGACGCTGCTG` has a fluorescence intensity of 10300 a.u.
With `TCTCCTTGCTCGTACCATGTGGTTTCATCTCAGGGTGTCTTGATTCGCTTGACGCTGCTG` the fluorescence intensity was 11000 a.u.

Sample 4
Target: RNA binding protein fox-1 homolog 2, RRM domain, GST-SBP tag (RBFOX2, Homo sapiens, UniProt O43251-10, residues 100-194)
Method: RNA Bind-n-Seq
Molecule type: RNA
Medium: in vitro
Concentration: 365 nM
Setting: natural RNA segment, single round, ends assumed
Reference: no-protein control
Direction: higher = stronger binding
Under “RBNS enrichment (R)”, `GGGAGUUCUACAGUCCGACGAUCCGUAUUCCGUUUUCUUCCUGCAUGAUCCCUGGGCCCUCCCGCAGGCUGAGCAAGUCUGUAAACUGAUUCUGGGAGAAACCAAGCUGCUGGCCAUAGGGUGUCCUUGGGUAUGGAAUUCUCGGGUGCCAA` is recorded as 2.45.
`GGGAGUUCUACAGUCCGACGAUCCCUGUUUGUAUUUAUAAAAAACAUGAACACAGGUCCUAAUAAAGAGAUGCCUAAGGCGGUAACUCUGAUCACCCCGUCCGCUUUGAUGGUGGGGAUACCUGUUGUAUCCUUGGAAUUCUCGGGUGCCAA`: “RBNS enrichment (R)” 0.406.
For `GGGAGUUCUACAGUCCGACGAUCGUAUAUUUAUUUUUAUGUAUGUUACUAUGUAAAUAUGGUUUGCAGUUGUUUUUGUGUGGAAUCUUGUCUUUCCGUAUAAGUUGUAAGCUCCUUGAGAGCAGGAUCCAUGUUGGAAUUCUCGGGUGCCAA`, “RBNS enrichment (R)” read 0.559.
`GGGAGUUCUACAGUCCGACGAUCGAAACAGGAAGAAGUAUGGUGGGGGCUGGGGUAGACUCCCCUGGAGCCAAGCCUAUCCAGCUAACAAGAGCUCCCUGGGGCUGGUCACAGCUGGCUCAUGAUGCUGAACUUGGAAUUCUCGGGUGCCAA` — result for “RBNS enrichment (R)”: 0.805.
Under “RBNS enrichment (R)”, `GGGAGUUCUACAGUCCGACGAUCUCCCUGCUUGGAGCUGCAGAAGGGUUGCCUUCUGUAGGUCGGAGGAAUGGAGGCUUACUAACCAGGUAAGCCUUCUAUGCAUCCACACCAAAAUCCUGCAGAAUGUAAGUUGGAAUUCUCGGGUGCCAA` is recorded as 0.655.
Under “RBNS enrichment (R)”, `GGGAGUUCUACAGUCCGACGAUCAUCAGAGGGCCAAGCAGAGUUCUUUUGGAUACCUGCUUUUCAUCCCACAGGGCCUUAGAGUCAGAGGUAAGGUAGCAACAGAGCUAGAAUGGGGCAAUGCACUCUUACCCUGGAAUUCUCGGGUGCCAA` is recorded as 0.708.

Some of these lines once more (sample 1):
`CGCGATAC` has an E-score of 0.278.
For `GATGGGAA`, the E-score was -0.132.
With `AGGGTCAC` the E-score was -0.0919.
For `CCATGGGG`, the E-score was -0.132.
